Assay results pooled from the literature.
Lines come from different studies, so protocols differ. Numbers after ± are the reported error.

| SMILES | target or system | assay | test system | conditions | endpoint | value |
| --- | --- | --- | --- | --- | --- | --- |
| O=C1NC2(CC2)COc2ncc(F)cc2[C@H]2COCCN2c2ccn3ncc1c3n2 | – | – | Sprague-Dawley rat, female, thymus | oral, 10 mg/kg/day, 4 weeks, end of treatment | organ-to-body weight ratio | 0.18 ± 0.036% |
| CN1Cc2cc(Cl)ccc2-n2c(nnc2C2CCN(c3cccc([18F])n3)CC2)C1 | – | – | C57BL/6 mouse male, spleen | intravenous, 3.7 MBq, 30 min | tissue uptake | 5.87 ± 2.76 %ID/g |
| CC[C@H](C)[C@H](NC(=O)[C@H](CCCNC(=N)N)NC(=O)[C@H](CCCCN)NC(=O)[C@H](Cc1ccc(O)cc1)NC(=O)[C@H](CC(=O)O)NC(=O)[C@H](C)NC(=O)CNC(=O)CCOCCOCCOCCNC(=O)CN1CCN(CC(=O)O)CCN(CC(=O)O)CCN(CC(=O)O)CC1)C(=O)N[C@H](C(=O)N[C@@H](CC(C)C)C(=O)N[C@@H](CCCCN)C(=O)N[C@H](C(=O)N[C@@H](CC(N)=O)C(N)=O)C(C)C)[C@@H](C)O [copper-64 labelled] | – | ex vivo gamma counting | C57BL/6J male mice, B16-F10 tumour, blood | intravenous, 1.85 MBq, 40 min | tissue uptake | 1.06 ± 0.135 %ID/g |
| CC(C)C[C@@H](NC(=O)[C@@H](CCCNC(=N)N)NC(=O)[C@@H](Cc1c[nH]cn1)NC(=O)[C@@H](Cc1c[nH]c2ccccc12)NC(=O)[C@@H](Cc1c[nH]cn1)NC(=O)[C@@H](Cc1ccccc1)NC(=O)[C@H](NC(=O)[C@@H](Cc1ccc(O)cc1)NC(=O)CNC(=O)CNC(=O)CCOCCOCCOCCNC(=O)CN1CCN(CC(=O)O)CCN(CC(=O)O)CC1)[C@H](C)O)C(=O)N[C@H](CC(N)=O)C(=O)N1CCC[C@@H]1C(=O)O [gallium-68 labelled] | – | gamma counting | C57BL/6 mice, male, heart | intravenous, 1.85 MBq, 60 min | tissue uptake | 1.07 ± 0.21 %ID/g |
| C[C@H](O)[C@@H](NC(=O)[C@H]1CCCN1C(=O)[C@@H](CCCCN)NC(=O)[C@@H](CO)NC(=O)[C@@H](Cc1ccc(O)cc1)NC(=O)[C@@H](CC(N)=O)NC(=O)CCOCCOCCOCCNC(=O)CN1CCN(CC(=O)O)CCN(CC(=O)O)CCN(CC(=O)O)CC1)C(=O)N[C@H](CC(=O)O)C(=O)N[C@H](CCCNC(=N)N)C(=O)N[C@H](CCC(N)=O)C(=O)N[C@H](Cc1ccc(O)cc1)C(=O)N[C@H](Cc1c[nH]cn1)C(=O)N[C@H](Cc1ccccc1)C(N)=O [gallium-68 labelled] | – | – | BALB/c nude mice U-87 MG tumour, stomach | intravenous, 1.85 MBq, 0.5 h, radiolabelled | tissue uptake | 0.61 ± 0.35 %ID/g |
| CC[C@H](C)[C@H](NC(=O)[C@H](CCCNC(=N)N)NC(=O)[C@H](CCCCN)NC(=O)[C@H](Cc1ccc(O)cc1)NC(=O)[C@H](CC(=O)O)NC(=O)[C@H](C)NC(=O)CNC(=O)CCOCCOCCOCCNC(=O)CN1CCN(CC(=O)O)CCN(CC(=O)O)CCN(CC(=O)O)CC1)C(=O)N[C@H](C(=O)N[C@H](C(=O)N[C@@H](CCCCN)C(=O)N[C@H](C(=O)N[C@@H](CC(N)=O)C(N)=O)C(C)C)C(C)C)[C@@H](C)O [copper-64 labelled] | – | ex vivo gamma counting | male C57BL/6J mouse, B16-F10 tumour, intestinal lymph node | intravenous, 1.85 MBq, 5 min | tissue uptake | 2.39 ± 0.415 %ID/g |
| CCCC[C@H]1C(=O)N(C)[C@@H](CCCC)C(=O)N[C@@H](CCCNC(=O)CN2CCN(CC(=O)O)CCN(CC(=O)O)CCN(CC(=O)O)CC2)C(=O)N[C@H](C(=O)NCC(N)=O)CSCC(=O)N[C@@H](Cc2ccc(O)cc2)C(=O)N(C)[C@@H](C)C(=O)N[C@@H](CC(N)=O)C(=O)N2CCC[C@H]2C(=O)N[C@@H](Cc2c[nH]cn2)C(=O)N[C@@H](CC(C)C)C(=O)N(C)CC(=O)N[C@@H](Cc2c[nH]c3ccccc23)C(=O)N[C@@H](CO)C(=O)N[C@@H](Cc2c[nH]c3ccccc23)C(=O)N1C [gallium-68 labelled] | – | – | NOD/SCID mice with CHO-hPD-L1 xenograft, lung | 10 min post injection | tissue uptake | 9 ± 1.97 %ID/g |
| Cc1ccc(OCCN(C)C)cc1C(=O)N[C@H](C)c1cc(-c2cccs2)nc2ccccc12 | Vero E6 | – | – | 31.25 µM | viability | 4.81% |
| CSCC[C@H](NC(=O)CNC(=O)[C@H](CCCCN)NC(=O)[C@H](CC(C)C)NC(=O)[C@@H]1CCCN1C(=O)[C@H](CO)NC(=O)[C@H](Cc1c[nH]cn1)NC(=O)[C@H](Cc1c[nH]c2ccccc12)NC(=O)[C@H](CCCNC(=N)N)NC(=O)[C@H](CC(C)C)NC(=O)[C@H](CCCNC(=N)N)NC(=O)[C@H](Cc1c[nH]c2ccccc12)NC(=O)[C@H](CS)NC(=O)CCCCCNC(=O)CN1CCN(CC(=O)O)CCN(CC(=O)O)CCN(CC(=O)O)CC1)C(=O)O [copper-64 labelled] | – | ex vivo biodistribution | BALB/c nude mice, bladder | intravenous, dose not given, 2 h, Huh-7 tumour-bearing | tissue uptake | 1.54 %ID/g |
| Cc1ccc(N2CCN(C)CC2)cc1C(=O)N[C@H](C)c1cc(-c2cnn(C)c2)nc2ccccc12 | African green monkey cells | – | – | 31.25 µM | viability | 87.1% |
| CC[C@H](C)[C@H](NC(=O)[C@H](CCCCN)NC(=O)CNC(=O)[C@H](CC(C)C)NC(=O)[C@H](Cc1ccccc1)NC(=O)[C@H](CCCCN)NC(=O)[C@H](CO)NC(=O)[C@H](Cc1ccccc1)NC(=O)[C@H](Cc1c[nH]c2ccccc12)NC(=O)[C@H](CCC(N)=O)NC(=O)[C@@H](NC(=O)[C@H](Cc1ccccc1)NC(=O)CCCCCNC(=O)CN1CCN(CC(=O)O)CCN(CC(=O)O)CCN(CC(=O)O)CC1)C(C)C)C(=O)N[C@@H](CCC(=O)O)C(=O)N1CCC[C@H]1C(=O)N[C@@H](CC(=O)O)C(=O)N[C@H](C(=O)N[C@@H](CO)C(=O)N[C@@H](CCC(N)=O)C(=O)N[C@H](C(=O)N[C@@H](CCC(N)=O)C(=O)N[C@@H](CC(=O)O)C(=O)N1CCC[C@H]1C(=O)N[C@@H](CC(N)=O)C(=O)N[C@@H](CC(=O)O)C(=O)N[C@@H](CCC(N)=O)C(=O)N[C@@H](Cc1ccc(O)cc1)C(=O)N[C@@H](CCC(=O)O)C(=O)N1CCC[C@H]1C(=O)N[C@@H](Cc1ccccc1)C(=O)O)C(C)C)C(C)C [copper-64 labelled] | – | – | C57BL/6 male mouse, tumour-naive, thymus | 24 h | tissue uptake | 2.67 ± 0.4 %ID/g |

A few entries again:
| SMILES | target or system | assay | test system | conditions | endpoint | value |
| --- | --- | --- | --- | --- | --- | --- |
| C[C@H](O)[C@@H](NC(=O)[C@H]1CCCN1C(=O)[C@@H](CCCCN)NC(=O)[C@@H](CO)NC(=O)[C@@H](Cc1ccc(O)cc1)NC(=O)[C@@H](CC(N)=O)NC(=O)CCOCCOCCOCCNC(=O)CN1CCN(CC(=O)O)CCN(CC(=O)O)CCN(CC(=O)O)CC1)C(=O)N[C@H](CC(=O)O)C(=O)N[C@H](CCCNC(=N)N)C(=O)N[C@H](CCC(N)=O)C(=O)N[C@H](Cc1ccc(O)cc1)C(=O)N[C@H](Cc1c[nH]cn1)C(=O)N[C@H](Cc1ccccc1)C(N)=O [gallium-68 labelled] | – | – | BALB/c nude mice U-87 MG tumour, stomach | intravenous, 1.85 MBq, 0.5 h, radiolabelled | tissue uptake | 0.61 ± 0.35 %ID/g |
| CC[C@H](C)[C@H](NC(=O)[C@H](CCCNC(=N)N)NC(=O)[C@H](CCCCN)NC(=O)[C@H](Cc1ccc(O)cc1)NC(=O)[C@H](CC(=O)O)NC(=O)[C@H](C)NC(=O)CNC(=O)CCOCCOCCOCCNC(=O)CN1CCN(CC(=O)O)CCN(CC(=O)O)CCN(CC(=O)O)CC1)C(=O)N[C@H](C(=O)N[C@H](C(=O)N[C@@H](CCCCN)C(=O)N[C@H](C(=O)N[C@@H](CC(N)=O)C(N)=O)C(C)C)C(C)C)[C@@H](C)O [copper-64 labelled] | – | ex vivo gamma counting | male C57BL/6J mouse, B16-F10 tumour, intestinal lymph node | intravenous, 1.85 MBq, 5 min | tissue uptake | 2.39 ± 0.415 %ID/g |
